Assay results from different studies.
Values joined by “and” are separate records of one study, mostly repeats; a detail may differ. ± gives the spread as reported.

| SMILES | cell line | test | test system | setting | IC50 |
| --- | --- | --- | --- | --- | --- |
| Cn1cc(Nc2nccc(-c3ccc4c(c3)CN(C3COC3)CC[C@H]4NC(=O)c3cn(C(C)(C)C)nn3)n2)cn1 | B cells | CD69 expression | human whole blood | healthy donors, with: anti-IgD | 0.087 µM |
| COc1ccc(N(C)c2nc(C)nc3c2CCC3)cc1 | MDA-MB-435 | cell growth or viability, SRB |  |  | 0.007 µM |
| COCc1c(C(C)C)nc(C(C)C)c(/C=C/[C@@H](O)C[C@@H](O)CC(=O)O)c1-c1ccc(F)cc1 | PANC-1 | cell growth, SRB |  | 72 h, 10% FBS | 35.3 µM |
| c1ccc(-c2cc3ccccc3[nH]2)cc1 | HEK293 NF-κB luciferase reporter | reporter gene, measured: NF-κB |  | 6 h, with: TNFα | 25.4 µM and < 50 µM |
| COC(=O)c1c(-c2cccc([N+](=O)[O-])c2)c2n(c1C(=O)OC)CCn1cccc1-2 | PANC-1 | cell growth or viability, MTT |  | 48 h | 34.1 µM |
| COc1ccc(C[C@H]2COC(=O)[C@@H]2Cc2ccc(OCC(=O)NCC(=O)Nc3ccccc3N)c(OC)c2)cc1OC | CCRF-CEM | cell growth or viability, CCK-8 |  | 48 h | > 5 µM |
| COc1cc(C(=O)c2sc3cc(C)ccc3c2NC(C)=O)cc(OC)c1OC | L1210 | cell growth or viability |  | 24 h | 0.58 µM |
| O=C(Nc1nccs1)C(c1cc(F)ccc1O)N1Cc2ccccc2C1=O (stereo not shown) | Ba/F3 EGFR L858R | cell proliferation, MTS |  | compound alone | ~10 µM |
| C=CCc1ccc(OCc2nnc(SCC(=O)N3CCOCC3)o2)c(OC)c1 | SK-OV-3 | cell growth or viability, MTT |  | 72 h | 61.1 µM |
| O=c1[nH]nc(O)c2c(-c3ccccc3)c3n(c12)CCn1cccc1-3 | PANC-1 | cell growth or viability, MTT |  | 48 h | 92.5 µM |
| COc1ccccc1-c1nccc(COc2ccccc2C[C@@H](Nc2ncnc3oc(-c4ccc(F)cc4)c(-c4ccc(OCCN5CCN(C)CC5)c(Cl)c4C)c23)C(=O)O)n1 | NCI-H929 | cell viability, MTT |  | 48 h, 10% CFS | 0.018 µM |
| COc1ccc2oc(C(=O)c3cc(OC)c(OC)c(OC)c3)c(NC(=O)CBr)c2c1 | L1210 | cell growth or viability |  | 24 h | 53 µM |
| O=C(N/N=C/c1cccnc1)c1c(O)ccc2ccccc12 | PANC-1 | cell growth or viability |  | 72 h | > 10 µM |
| COc1cc([C@@H]2c3cc4c(cc3[C@@H](O[C@@H]3O[C@@H]5CO[C@@H](C)O[C@H]5[C@H](O)[C@H]3O)[C@H]3COC(=O)[C@H]23)OCO4)cc(OC)c1O | HCT-15/ADM2-2 | cell growth, XTT |  | 72 h | 5.48 µg/mL |
| COc1cc(-c2c3n(c4c(=O)[nH]nc(O)c24)CCn2cccc2-3)cc(OC)c1OC | PANC-1 | cell growth or viability, MTT |  | 48 h | 72.8 µM |
| O=C(N/N=C/c1cc(-c2ccsc2)ccc1O)c1ccccc1O | PANC-1 | cell growth or viability |  | 72 h | 2.32 µM |
| CN1CCc2c(c3ccccc3n2Cc2ccc(C(=O)NO)cc2)C1 | Jurkat J.gamma1 | cell viability, MTS |  |  | > 20 µM |
| C=CCc1ccc(O)c(-c2ccc(O)c(CC=C)c2)c1 | PANC-1 | cell proliferation, MTS |  | 72 h, with: 10 µM BLM | 2.51 µM |
| COC(=O)c1c(-c2ccc([N+](=O)[O-])cc2)c2n(c1C(=O)OC)CCn1cccc1-2 | PANC-1 | cell growth or viability, MTT |  | 48 h | 68.3 µM |
| Cc1cc(O)c2c(c1)C(=O)c1cc(O)cc(O)c1C2=O | MOLT-3 | cell growth or viability, ATP luminescence |  | 24 h | 8 µM |
| COc1cc(C(=O)c2sc3c(C)cccc3c2NC(=O)CBr)cc(OC)c1OC | L1210 | cell growth or viability |  | 24 h | 0.25 µM |
| C[C@H]1[C@H](C)CC[C@]2(C(=O)O)CC[C@]3(C)C(=CC[C@@H]4[C@@]5(C)C[C@@H](O)[C@H](O)[C@@](C)(CO)[C@@H]5[C@H](O)C[C@]43C)[C@H]12 | LAPC4 | AR transcriptional activity, antagonist, PSA promoter luciferase |  | 24 h | 1.99 µM |
| COc1ccc(C(O)COc2ccc(-c3csc(-c4ccc(OCC(O)c5ccc(OC)c(OC)c5)cc4)n3)cc2)cc1OC (stereo not shown) | H460 LKB1-proficient | mitochondrial ATP production |  |  | 0.232 µM |

| SMILES | cell line | test | test system | setting | IC50 |
| --- | --- | --- | --- | --- | --- |
| CCOP(=O)(OCC)[C@@H]1C[C@@H](Cn2c(=O)n(C(=O)c3ccc(F)cc3)c(=O)c3ccccc32)ON1C (relative stereo) | CCRF-CEM | cell growth or viability |  | 72 h | > 250 µM |
| O=C(O)C=Cc1cc(O)ccc1O | LAPC4 | AR transcriptional activity, antagonist, PSA promoter luciferase |  | 24 h | 1.14 µM |
| O=C(/C=C/c1ccc(O)cc1)CC(=O)/C=C/c1ccc(O)cc1 | Hs68 | cell growth or viability, MTT |  | 48 h | > 100 µg/mL |
| O=C1C(=Cc2ccccc2)CN(C(=O)c2cccc(C(=O)N3CC(=Cc4ccccc4)C(=O)C(=Cc4ccccc4)C3)c2)CC1=Cc1ccccc1 | MOLT-4/C8 and CEM T-lymphocytes | cytotoxicity |  |  | 24.3 µM |
| Cc1cc(C(=O)/C(=C\c2ccc(C)c(Cl)c2)c2ccc(C)c(Cl)c2)c(C(=O)N2CCCCC2)c(=O)[nH]1 | human Fibroblast | cell growth or viability, MTT |  | 72 h | 8.1 µM |
| COC(=O)c1c(-c2cccc(OC)c2)c2n(c1C(=O)OC)CCn1cccc1-2 | PANC-1 | cell growth or viability, MTT |  | 48 h | 67.2 µM |
| O=C(/C=C/c1ccc(CN2CCCCC2)c(O)c1)c1ccc(F)cc1 | WRL68 | cell growth or viability, MTT |  | 72 h | 27.7 µM |
| CC(C)Oc1ccc(C(=O)Cn2ccnc2)cc1-n1c(CN2CCN(C(=O)COc3ccc(Cl)cc3)CC2)nc2ccccc2c1=O | A3/KAW | cell viability, CellTiter-Glo |  | 24 h | > 10 µM |
| COc1cc([C@@H]2c3cc4c(cc3[C@@H](O[C@@H]3O[C@@H]5CO[C@@H](C)O[C@H]5[C@H](O)[C@H]3O)[C@H]3COC(=O)[C@H]23)OCO4)cc(OC)c1O | PANC-1 | cell proliferation, MTT |  | 48 h | 24.35 ± 0.001 µM |
| Brc1ccc(-c2cc3ccccc3[nH]2)cc1 | HEK293 NF-κB luciferase reporter | reporter gene, measured: NF-κB |  | 6 h, with: TNFα | 12.5 ± 2 µM |
| CC[C@@H](C)[C@@H](NC(=O)[C@H](N)CCCCN)C(=O)N[C@H](CCCCN)C(=O)N[C@H](CCSC)C(=O)N[C@@H](C(=O)N[C@@H](C(=O)N[C@H](CO)C(=O)N[C@H](Cc1c[nH]c2ccccc12)C(=O)N[C@H](CCCCN)C(=O)NCC(=O)O)[C@H](C)CC)C(C)C | NCI-H929 | viability, TO-PRO-3 staining, flow cytometry |  |  | 31.9 µM |
| COc1ccc(C[C@H](N)C(=O)N[C@H]2[C@@H](O)[C@H](n3cnc4c(N(C)C)ncnc43)O[C@@H]2CO)cc1 | NIH3T3 | resazurin |  | 250 cells per well | 4.69 ± 0.13 µM |
| Cc1cc(C(=O)/C(=C\c2ccccc2C)c2ccccc2C)c(C(=O)N2CCCCC2)c(=O)[nH]1 | human primary dermal fibroblasts | cell proliferation, MTT |  | 72 h | > 10 µM |
| COC(=O)c1c(-c2ccccc2F)c2n(c1C(=O)OC)CCn1cccc1-2 | PANC-1 | cell growth or viability, MTT |  | 48 h | 72 µM |
| CCCCCCCCCCCCCCCC(=O)NCCC[N+](C)(C)CCCS(=O)(=O)[O-] | SK-OV-3 eGFP-transfected | cell viability, MTT |  | 24 h | 120 µM |
| COc1cc(C(=O)c2oc3c(OC)cccc3c2NC(=O)CBr)cc(OC)c1OC | L1210 | cell growth or viability |  | 24 h | > 100 µM |
| O=C1c2cccc(O)c2C(=O)c2c(O)cc(CO)cc21 | MOLT-3 | cell growth or viability, ATP luminescence |  | 24 h | 220 µM |
| CNC(=O)c1cc(Oc2ccc(NC(=O)Nc3ccc(Cl)c(C(F)(F)F)c3)cc2)ccn1 | HepG2 2.2.15 with DHFR overexpression | cell viability, MTT |  |  | > 3 µM |
| O=C(O)Cc1ccccc1Nc1c(Cl)cccc1Cl.O=C(O)Cc1ccccc1Nc1c(Cl)cccc1Cl.c1cnc2c(c1)ccc1cccnc12.c1cnc2c(c1)ccc1cccnc12 | NIH3T3 | cell viability, MTT |  | 48 h | 53.5 ± 2.43 µM |
| Cc1ccc(C)n1-c1cccc(C(=O)O)c1 | LAPC4 | AR transcriptional activity, antagonist, PSA promoter luciferase |  | 24 h | 0.834 µM |
| CCN(CC)Cc1cc2c(C)cc(=O)oc2c(C)c1O | NIH3T3 | hyaluronan secretion |  | 72 h | 100 ± 62 µM |
| Clc1ccc(C(Cn2ccnc2)OCc2csc3c(Cl)cccc23)c(Cl)c1 (stereo not shown) | LAPC4 | AR transcriptional activity, antagonist, PSA promoter luciferase |  | 24 h | 0.554 µM |
| COc1c(O)cc2oc3cc(O)c(CC=C(C)C)c(O)c3c(=O)c2c1CC=C(C)C | H1L6.1c3 | cell viability, MTT |  |  | 26.3 ± 0.08 µM |

Repeated from above:
| SMILES | cell line | test | test system | setting | IC50 |
| --- | --- | --- | --- | --- | --- |
| O=C1C(=Cc2ccccc2)CN(C(=O)c2cccc(C(=O)N3CC(=Cc4ccccc4)C(=O)C(=Cc4ccccc4)C3)c2)CC1=Cc1ccccc1 | MOLT-4/C8 and CEM T-lymphocytes | cytotoxicity |  |  | 24.3 µM |
| CC[C@@H](C)[C@@H](NC(=O)[C@H](N)CCCCN)C(=O)N[C@H](CCCCN)C(=O)N[C@H](CCSC)C(=O)N[C@@H](C(=O)N[C@@H](C(=O)N[C@H](CO)C(=O)N[C@H](Cc1c[nH]c2ccccc12)C(=O)N[C@H](CCCCN)C(=O)NCC(=O)O)[C@H](C)CC)C(C)C | NCI-H929 | viability, TO-PRO-3 staining, flow cytometry |  |  | 31.9 µM |
| O=C(Nc1nccs1)C(c1cc(F)ccc1O)N1Cc2ccccc2C1=O (stereo not shown) | Ba/F3 EGFR L858R | cell proliferation, MTS |  | compound alone | ~10 µM |
